Measurements collected from several papers.
Each numbered part is a random draw from the data of one study; scales do not carry over between parts. Values joined by “and” are separate records of one study, mostly repeats; a detail may differ.
UniProt P10721, sequence (whole entry, unmodified, looked up): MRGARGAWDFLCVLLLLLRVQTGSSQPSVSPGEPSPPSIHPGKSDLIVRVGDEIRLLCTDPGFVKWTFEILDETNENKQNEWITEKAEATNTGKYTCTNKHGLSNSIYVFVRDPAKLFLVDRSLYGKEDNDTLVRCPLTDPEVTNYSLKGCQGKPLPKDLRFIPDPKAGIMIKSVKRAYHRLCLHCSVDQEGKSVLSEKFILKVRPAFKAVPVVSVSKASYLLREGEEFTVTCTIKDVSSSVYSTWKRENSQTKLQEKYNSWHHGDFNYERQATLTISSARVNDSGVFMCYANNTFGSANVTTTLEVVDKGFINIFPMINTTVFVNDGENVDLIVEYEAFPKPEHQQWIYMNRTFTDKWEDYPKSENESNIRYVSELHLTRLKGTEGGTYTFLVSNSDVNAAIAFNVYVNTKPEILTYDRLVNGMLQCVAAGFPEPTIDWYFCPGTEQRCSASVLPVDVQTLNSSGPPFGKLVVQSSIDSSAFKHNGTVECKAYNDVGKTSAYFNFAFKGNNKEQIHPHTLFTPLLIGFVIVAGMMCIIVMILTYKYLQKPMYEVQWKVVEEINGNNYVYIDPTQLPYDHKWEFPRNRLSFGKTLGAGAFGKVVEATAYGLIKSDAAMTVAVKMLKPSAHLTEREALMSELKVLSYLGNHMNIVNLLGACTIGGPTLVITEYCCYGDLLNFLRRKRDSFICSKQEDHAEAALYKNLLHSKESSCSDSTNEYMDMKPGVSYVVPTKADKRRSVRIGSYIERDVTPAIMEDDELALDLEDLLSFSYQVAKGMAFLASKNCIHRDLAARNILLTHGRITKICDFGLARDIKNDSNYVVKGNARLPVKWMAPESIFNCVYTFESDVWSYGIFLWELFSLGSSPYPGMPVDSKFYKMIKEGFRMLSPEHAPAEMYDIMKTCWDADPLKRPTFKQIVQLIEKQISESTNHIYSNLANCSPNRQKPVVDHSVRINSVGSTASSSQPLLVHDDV
UniProt P51957, sequence (whole entry, looked up): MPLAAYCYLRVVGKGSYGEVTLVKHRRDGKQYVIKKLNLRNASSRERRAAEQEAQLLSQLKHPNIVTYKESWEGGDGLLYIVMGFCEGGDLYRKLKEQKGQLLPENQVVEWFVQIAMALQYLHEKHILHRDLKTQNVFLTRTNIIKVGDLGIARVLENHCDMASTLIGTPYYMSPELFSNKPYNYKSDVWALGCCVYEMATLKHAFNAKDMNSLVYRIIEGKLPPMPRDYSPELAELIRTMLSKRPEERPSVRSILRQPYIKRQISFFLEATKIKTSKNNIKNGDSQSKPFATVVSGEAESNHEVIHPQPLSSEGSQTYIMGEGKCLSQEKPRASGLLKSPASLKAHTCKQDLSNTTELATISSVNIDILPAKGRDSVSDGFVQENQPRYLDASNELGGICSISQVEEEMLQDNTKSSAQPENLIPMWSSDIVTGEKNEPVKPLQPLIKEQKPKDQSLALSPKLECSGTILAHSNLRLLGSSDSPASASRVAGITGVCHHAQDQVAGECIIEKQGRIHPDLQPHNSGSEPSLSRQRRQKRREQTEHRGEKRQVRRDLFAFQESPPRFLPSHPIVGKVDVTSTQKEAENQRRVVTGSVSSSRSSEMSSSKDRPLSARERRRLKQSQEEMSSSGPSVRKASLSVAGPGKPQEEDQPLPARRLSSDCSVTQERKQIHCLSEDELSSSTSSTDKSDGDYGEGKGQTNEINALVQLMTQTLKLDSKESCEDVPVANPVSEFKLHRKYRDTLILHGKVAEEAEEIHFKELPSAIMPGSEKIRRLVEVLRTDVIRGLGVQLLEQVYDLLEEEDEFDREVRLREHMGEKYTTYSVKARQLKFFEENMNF
UniProt O14757, sequence (whole entry, looked up): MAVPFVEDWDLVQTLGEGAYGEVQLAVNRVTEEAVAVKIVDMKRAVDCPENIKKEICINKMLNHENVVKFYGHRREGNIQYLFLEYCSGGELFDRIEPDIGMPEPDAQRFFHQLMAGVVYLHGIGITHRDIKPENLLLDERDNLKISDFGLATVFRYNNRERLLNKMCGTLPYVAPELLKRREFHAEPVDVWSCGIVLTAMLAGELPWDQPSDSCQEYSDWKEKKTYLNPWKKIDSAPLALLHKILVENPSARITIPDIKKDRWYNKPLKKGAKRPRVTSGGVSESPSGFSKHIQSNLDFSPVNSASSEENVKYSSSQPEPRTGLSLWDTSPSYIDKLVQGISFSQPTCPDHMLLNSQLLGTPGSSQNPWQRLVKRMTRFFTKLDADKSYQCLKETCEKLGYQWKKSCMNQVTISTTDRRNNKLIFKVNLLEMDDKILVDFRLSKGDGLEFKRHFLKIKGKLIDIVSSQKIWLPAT
UniProt P45983, sequence (whole entry, looked up): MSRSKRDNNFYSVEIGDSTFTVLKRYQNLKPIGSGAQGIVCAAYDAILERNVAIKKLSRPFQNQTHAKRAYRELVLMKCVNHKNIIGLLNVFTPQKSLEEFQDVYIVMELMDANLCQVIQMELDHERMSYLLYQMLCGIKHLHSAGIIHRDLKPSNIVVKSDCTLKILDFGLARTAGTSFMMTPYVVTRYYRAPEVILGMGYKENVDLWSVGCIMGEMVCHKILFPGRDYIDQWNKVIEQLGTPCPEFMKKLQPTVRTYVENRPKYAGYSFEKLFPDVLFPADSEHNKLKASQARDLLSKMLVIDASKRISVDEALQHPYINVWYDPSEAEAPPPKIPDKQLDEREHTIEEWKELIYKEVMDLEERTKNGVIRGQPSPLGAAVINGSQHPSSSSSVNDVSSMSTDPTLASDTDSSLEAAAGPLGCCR
UniProt Q9NYY3, sequence (whole entry, looked up): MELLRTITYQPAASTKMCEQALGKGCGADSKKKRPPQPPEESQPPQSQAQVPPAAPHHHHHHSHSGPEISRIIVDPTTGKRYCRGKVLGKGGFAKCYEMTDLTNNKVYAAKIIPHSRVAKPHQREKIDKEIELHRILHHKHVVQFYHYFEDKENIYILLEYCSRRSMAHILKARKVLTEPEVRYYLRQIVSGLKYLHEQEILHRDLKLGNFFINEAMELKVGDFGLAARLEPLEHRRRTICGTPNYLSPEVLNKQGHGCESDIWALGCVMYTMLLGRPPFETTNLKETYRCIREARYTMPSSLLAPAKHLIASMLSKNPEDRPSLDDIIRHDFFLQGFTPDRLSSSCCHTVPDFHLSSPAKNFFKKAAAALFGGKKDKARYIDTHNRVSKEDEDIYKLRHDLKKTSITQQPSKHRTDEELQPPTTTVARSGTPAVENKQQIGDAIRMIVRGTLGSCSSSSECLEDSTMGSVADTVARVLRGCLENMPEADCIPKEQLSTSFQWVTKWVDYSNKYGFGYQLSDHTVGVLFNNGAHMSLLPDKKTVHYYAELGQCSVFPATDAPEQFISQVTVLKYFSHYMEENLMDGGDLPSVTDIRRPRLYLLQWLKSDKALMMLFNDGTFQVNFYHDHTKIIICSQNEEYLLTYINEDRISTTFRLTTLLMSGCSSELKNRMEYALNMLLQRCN
UniProt P53778, sequence (whole entry, looked up): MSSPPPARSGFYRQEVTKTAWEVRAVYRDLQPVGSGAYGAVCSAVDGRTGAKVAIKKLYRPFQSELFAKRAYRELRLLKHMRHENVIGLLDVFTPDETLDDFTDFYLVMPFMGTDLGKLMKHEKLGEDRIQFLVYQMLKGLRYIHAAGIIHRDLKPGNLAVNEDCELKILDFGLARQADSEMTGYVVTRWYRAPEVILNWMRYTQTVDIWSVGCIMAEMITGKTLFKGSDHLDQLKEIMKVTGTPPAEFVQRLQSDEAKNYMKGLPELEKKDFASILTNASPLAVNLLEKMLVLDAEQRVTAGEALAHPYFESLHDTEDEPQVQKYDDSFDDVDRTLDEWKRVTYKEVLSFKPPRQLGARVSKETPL
UniProt P15735, sequence (whole entry, looked up): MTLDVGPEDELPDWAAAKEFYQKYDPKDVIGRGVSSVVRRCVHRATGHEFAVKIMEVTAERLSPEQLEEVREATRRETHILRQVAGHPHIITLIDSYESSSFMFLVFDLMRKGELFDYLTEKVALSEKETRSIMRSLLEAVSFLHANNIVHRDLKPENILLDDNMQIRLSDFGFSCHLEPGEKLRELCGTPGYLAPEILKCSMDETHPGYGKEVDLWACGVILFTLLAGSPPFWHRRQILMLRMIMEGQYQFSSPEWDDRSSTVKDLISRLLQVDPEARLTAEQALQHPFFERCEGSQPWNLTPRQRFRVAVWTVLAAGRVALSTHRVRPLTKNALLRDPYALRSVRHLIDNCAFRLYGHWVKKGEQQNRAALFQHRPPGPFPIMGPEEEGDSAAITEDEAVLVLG
UniProt P50750, sequence (whole entry, looked up): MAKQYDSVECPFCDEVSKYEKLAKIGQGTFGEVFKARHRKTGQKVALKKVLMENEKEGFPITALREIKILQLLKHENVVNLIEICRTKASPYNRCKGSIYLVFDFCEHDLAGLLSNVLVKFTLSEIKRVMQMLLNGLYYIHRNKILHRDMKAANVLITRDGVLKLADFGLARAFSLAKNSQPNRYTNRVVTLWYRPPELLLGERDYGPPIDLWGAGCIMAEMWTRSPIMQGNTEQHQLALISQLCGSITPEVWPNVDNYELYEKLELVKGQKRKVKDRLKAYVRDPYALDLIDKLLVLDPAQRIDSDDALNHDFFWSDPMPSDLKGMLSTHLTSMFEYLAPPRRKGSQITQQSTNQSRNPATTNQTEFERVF

Block 1
SMILES: CCN(CC)CCCCN1c2ccccc2Oc2ccc(Cl)cc21
Observed: enzyme activity
Action: inhibitor
Concentration: 0.5 µM
Relative to: control
target | remaining activity
MAPK13 (Homo sapiens, UniProt O15264) | 94.3%
MAP2K6 (Homo sapiens, UniProt P52564) | 102%
CSNK2A1 (Homo sapiens, UniProt P68400) | 96.2%
PLK2 (Homo sapiens, UniProt Q9NYY3) | 103%
LRRK2 (Homo sapiens, UniProt Q5S007) | 114%
MKNK2 (Homo sapiens, UniProt Q9HBH9) | 111%
BTK (Homo sapiens, UniProt Q06187) | 99.2%
LYN (Homo sapiens, UniProt P07948) | 105%
MAP4K2 (Homo sapiens, UniProt Q12851) | 110%
AKT3 (Homo sapiens, UniProt Q9Y243) | 103%
WNK2 (Homo sapiens, UniProt Q9Y3S1) | 119%
PRKCI (Homo sapiens, UniProt P41743) | 105%
MAP3K10 (Homo sapiens, UniProt Q02779) | 102%
IRAK4 (Homo sapiens, UniProt Q9NWZ3) | 194%
PRKCD (Homo sapiens, UniProt Q05655) | 95.4%
CSNK1A1 (Homo sapiens, UniProt P48729) | 96.1%
NEK4 (Homo sapiens, UniProt P51957) | 110%
MAPK12 (Homo sapiens, UniProt P53778) | 97.4%
KIT (Homo sapiens, UniProt P10721) | 107%
CHEK1 (Homo sapiens, UniProt O14757) | 101%
Cyclin-dependent kinase 9, with cyclin T1 (CDK9, Homo sapiens, UniProt P50750) | 101%
EPHA5 (Homo sapiens, UniProt P54756) | 109%

Block 2
Target: Eukaryotic initiation factor 4A-III (Homo sapiens, UniProt P38919)
UniProt P38919, sequence (whole entry, looked up): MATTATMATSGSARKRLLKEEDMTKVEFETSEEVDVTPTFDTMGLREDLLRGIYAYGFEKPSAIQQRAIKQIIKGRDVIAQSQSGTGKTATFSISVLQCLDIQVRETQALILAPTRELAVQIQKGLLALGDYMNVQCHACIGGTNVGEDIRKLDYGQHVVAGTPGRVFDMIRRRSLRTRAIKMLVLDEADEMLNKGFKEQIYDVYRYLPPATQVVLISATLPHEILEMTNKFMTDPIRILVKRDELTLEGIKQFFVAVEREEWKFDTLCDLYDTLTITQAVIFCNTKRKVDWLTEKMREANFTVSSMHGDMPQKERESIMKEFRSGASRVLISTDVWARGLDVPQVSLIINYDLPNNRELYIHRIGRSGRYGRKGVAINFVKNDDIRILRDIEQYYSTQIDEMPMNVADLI
Observed: RNA clamping
Method: fluorescence polarization
Concentration: concentration not given
Setting: mean of two replicates
Added: FAM-labelled poly r(AG)8 RNA
SMILES | fluorescence polarization change
COc1ccc([C@@]23Oc4cc(OC)cc(OC)c4[C@]2(O)[C@H](O)[C@H](C(=O)c2ccco2)[C@H]3c2ccccc2)cc1 | 23 mP and 11.5 mP
COC(=O)[C@@H]1[C@@H](O)[C@@]2(O)c3c(OC)cc(OS(=O)(=O)c4ccc(C)cc4)cc3O[C@@]2(c2ccc(OC)cc2)[C@H]1c1ccccc1 | 0.3 mP
COC(=O)[C@@H]1[C@@H](c2ccccc2)[C@]2(c3ccc(OC)cc3)Oc3cc(OC)cc(OC)c3[C@@]23NC(C2CCN(C(=O)OC(C)(C)C)CC2)=N[C@@]13O | 15.1 mP
CCCC1=N[C@@]2(O)[C@H](C(=O)OC)[C@@H](c3ccccc3)[C@]3(c4ccc(OC)cc4)Oc4cc(OC)cc(OC)c4[C@]23N1 | 36 mP
O[C@H]1C[C@@H](c2ccccc2)[C@]2(c3ccc(Cl)cc3)Oc3cc(OCCN4CCCC4)ccc3[C@]12O | 74 mP
COc1ccc([C@@]23Oc4cc(OC)cc(OC)c4[C@]2(O)[C@H](O)[C@H](C(=O)c2ccco2)[C@H]3c2ccccc2OC)cc1 | 23.6 mP
COC(=O)[C@H]1C(=O)[C@@]2(NC(C)C)c3c(OC)cc(OC)cc3O[C@@]2(c2ccc(OC)cc2)[C@@H]1c1ccccc1 | 0.6 mP
COc1ccc([C@]23Oc4cc(OC)cc(OC)c4[C@@]2(O)c2nc(-c4cccc(OC)c4)[nH]c(=O)c2[C@@H]3c2ccccc2)cc1 | 12.9 mP
O=C1O[C@H]2[C@@H]1[C@H](c1ccccc1)[C@@]1(c3ccccc3)Oc3ccccc3[C@@]21O | 1.9 mP

Block 3
Compound: CC(=O)N[C@@H](Cc1c[nH]c2ccccc12)C(=O)N[C@@H](CCC(=O)C=[N+]=[N-])C(=O)OC(C)C
Host: C57BL/6 CES1-/- mice, MC-38 tumour
Dose: dose not given
Added: anti-PD-1
Relative to: initial
time | body weight
day 70 after inoculation | 104% and 106% and 107%
day 26 after inoculation | 95.2% and 98.6% and 99.5% and 98.8% and 97.4% and 101%
day 73 after inoculation | 104% and 109%
day 33 after inoculation | 98.5% and 99.5% and 98% and 98.7% and 97.2% and 93.2% and 93.3%

Block 4
SMILES: CNCc1ccccc1-c1csc([C@@H](C)Nc2nc(C)nc3cc(OC)c(OC)cc23)c1
Concentration: 1 µM
target | observed | method | remaining binding [%]
FLT3 (Homo sapiens, UniProt P36888, D835H) | cell-free assay | competition with immobilised ligand | 55
ALK (Homo sapiens, UniProt Q9UM73, C1156Y) | cell-free assay | competition with immobilised ligand | 100
NEK4 (Homo sapiens, UniProt P51957) | cell-free assay | competition with immobilised ligand | 83
Tyrosine-protein kinase ABL1, phosphorylated (ABL1, Homo sapiens, UniProt P00519, M351T) | cell-free assay | competition with immobilised ligand | 74
Tyrosine-protein kinase ABL1, phosphorylated (ABL1, Homo sapiens, UniProt P00519, Q252H) | cell-free assay | competition with immobilised ligand | 85
MAPK8 (Homo sapiens, UniProt P45983) | cell-free assay | competition with immobilised ligand | 66
CDC42BPG (Homo sapiens, UniProt Q6DT37) |  | competition binding | 98
SYK (Homo sapiens, UniProt P43405) | cell-free assay | competition with immobilised ligand | 100
FRK (Homo sapiens, UniProt P42685) | cell-free assay | competition with immobilised ligand | 100
CDC42BPB (Homo sapiens, UniProt Q9Y5S2) | cell-free assay | competition with immobilised ligand | 89
CDK4 (Homo sapiens, UniProt P11802) | cell-free assay | competition with immobilised ligand | 100
Tyrosine-protein kinase ABL1, phosphorylated (ABL1, Homo sapiens, UniProt P00519, E255K) | binding | competition with immobilised ligand | 75
FGFR3 (Homo sapiens, UniProt P22607, G697C) | cell-free assay | competition with immobilised ligand | 85
PHKG2 (Homo sapiens, UniProt P15735) | cell-free assay | competition with immobilised ligand | 100
FER (Homo sapiens, UniProt P16591) | cell-free assay | competition with immobilised ligand | 100
CHEK1 (Homo sapiens, UniProt O14757) | cell-free assay | competition with immobilised ligand | 92
TSSK1B (Homo sapiens, UniProt Q9BXA7) | cell-free assay | competition with immobilised ligand | 59
MAP3K11 (Homo sapiens, UniProt Q16584) | cell-free assay | competition with immobilised ligand | 99
RET (Homo sapiens, UniProt P07949, M918T) | cell-free assay | competition with immobilised ligand | 70
KIT (Homo sapiens, UniProt P10721, A829P) | cell-free assay | competition with immobilised ligand | 87

Excerpt of the above (block 1):
target | remaining activity
NEK4 (Homo sapiens, UniProt P51957) | 110%
MAP4K2 (Homo sapiens, UniProt Q12851) | 110%
IRAK4 (Homo sapiens, UniProt Q9NWZ3) | 194%
MAPK12 (Homo sapiens, UniProt P53778) | 97.4%
PRKCI (Homo sapiens, UniProt P41743) | 105%
BTK (Homo sapiens, UniProt Q06187) | 99.2%
EPHA5 (Homo sapiens, UniProt P54756) | 109%
KIT (Homo sapiens, UniProt P10721) | 107%
LRRK2 (Homo sapiens, UniProt Q5S007) | 114%
